Measurements from different studies.
A part holds a random share of what one study measured.

Set 1
Target: Interferon regulatory factor 5, full length, phosphomimetic (IRF5, Homo sapiens, UniProt Q13568-2, residues 1-514, K96S/S451D/S453D/S456D/S462D)
Technique: protein-binding microarray
Form: double-stranded DNA, one strand shown
Sample: in vitro
Concentration: 250 nM
Notes: 60-bp whole probe
With: salmon DNA 0.4 mg/ml
Baseline: random background probes
Reading: higher = stronger binding
Endpoint: log fluorescence
All sequences stand within: GCCTAGCAC … GTCTTGATTCGCTTGACGCTGCTG
ATTGCTTCCTCTTTCACTGGGTGCTAG: 2.43 z-score
GCCGGTTTCCTACTGCTGACGTGCTAG: 0.283 z-score
TCACCTTTGTTTTTTTCACTGTGCTAG: 1.6 z-score
CACGGTTTCGGTTCCGGGACGTGCTAG: 9.66 z-score
TCAATTATCCTTGTCCCACTGTGCTAG: 0.0273 z-score
GACGATATCGGGTTTCGATACGTGCTA: 7.23 z-score
GACGATTTCAGATCCGAGACGTGCTAG: 0.319 z-score
TCATCTAGGTTTTCTGGAACTGTGCTA: 0.0789 z-score
GACAATCTCAGTTTCGAGACGTGCTAG: 5.56 z-score
TTAGAACTGGGGTGTCGATTAGTGCTA: -0.204 z-score
TCAGTTTTTGCTTTCCTACTGTGCTAG: 1.9 z-score

Set 2
Target: RNA binding protein fox-1 homolog 2, RRM domain, GST-SBP tag (RBFOX2, Homo sapiens, UniProt O43251-10, residues 100-194)
Technique: RNA Bind-n-Seq
Form: RNA
Sample: in vitro
Concentration: 365 nM
Notes: natural RNA segment, single round, ends assumed
Baseline: no-protein control
Reading: higher = stronger binding
Endpoint: RBNS enrichment (R)
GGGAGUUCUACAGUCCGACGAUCUUAUAUAUUCAGAUGGAAAAAAAUUUCCCCUUACACUCUUUCUCAAAAUACUCUCAUUUCGGUUUUUCCUGAAACCUUAUUUGGCCAUUCCCAUGGUUUUAUGACAGACAUGGAAUUCUCGGGUGCCAA: 0.962
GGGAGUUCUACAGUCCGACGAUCUGCCGUUCUGACCUGGGACUGGGCCACUUCUUCAGUUCCUAAUGCCAGGCCUGGCCUCCUGAUGCCUUUUGCAUUGCAGCUGUGUGUUUGAAAACUGAGACUCACAUCCAUGGAAUUCUCGGGUGCCAA: 0.534
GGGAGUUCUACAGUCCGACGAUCCUGUUCCAAACUAUUCCAUCAUCCUGUCCCAAUUGCCAAUAGAAAAGCUAAAAUCCCUGGCUCAGUUGCUAGAGUGCCUAGUAAAAUUCCUAGCAUAUGUGAGCGCUCCAUGGAAUUCUCGGGUGCCAA: 0.492
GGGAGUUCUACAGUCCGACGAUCUGUGGUGGGUGGGGAUAAUUUUUGUGCAGUCUUUUUUAGUGACCAAACUUUAAUUUUGAAGAAGAAUAUAUUGACUUACUAAGGGGAAGUAUUCUCAUUUUGAGUGACAUUGGAAUUCUCGGGUGCCAA: 0.787
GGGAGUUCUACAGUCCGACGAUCAGAAAUGCACUACAAAGUUAAGACAGAUUUUUGCUAAGUGCAGGAGGCCCUUUAUUAUUGCUGCAGAAAACAAAAGCCUGGCUGAGUUGAUGUUUUACAUUCUCCCUUACUGGAAUUCUCGGGUGCCAA: 0.407
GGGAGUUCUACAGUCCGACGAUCUAAGGCAUAAAUGCAGGUAAUUAUUCCCAGCUGACCUAAAGUCAAUAAAACAUUCUGUUUAAGUGUUUUUCUUACGUUUUUCUCAAUGAGUUAAUCAACAAGUAUUUAUUUGGAAUUCUCGGGUGCCAA: 0.471
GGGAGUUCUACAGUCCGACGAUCUAAAGACCAAAAACUGUGCUGGGAAGAUAUGCCCCACCUAUCUUUGGUACAUGGUAGGUGUUGUGAUGGAAAUGGAAAGCAUUGGUUAAAUGGAAUAGAGGUCUUGAUCUUGGAAUUCUCGGGUGCCAA: 0.714
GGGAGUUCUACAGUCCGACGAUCUACCCCACACAGGGUGGCAGAACUUGAAGGGUUACUGACGUGUAAAUGCUGGUAUUUGAUUUCCUGUGUGUGUUGCCCUGGCAUUAAGGGCAUUUUACCCUUGCAGUUUUUGGAAUUCUCGGGUGCCAA: 0.456

Set 3
Target: Fragile X messenger ribonucleoprotein 1, C-terminal low-complexity region (Fmr1, Mus musculus, UniProt P35922)
Technique: RNA Bind-n-Seq
Form: RNA
Sample: in vitro
Concentration: 200 nM
Notes: whole 134-nt RNA, ends assumed
With: 150 mM LiCl
Baseline: input library
Reading: higher = stronger binding
Endpoint: log2 enrichment
Library: 7-deaza-guanosine replaces G
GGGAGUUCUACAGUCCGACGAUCCACAGACAACACGCACCCACACAGACACAGAGGGAAGGGGUUGGGAUGGGGACAGGGUGCACAGCAAAACGGGGUAGGACCCCAGCCCCUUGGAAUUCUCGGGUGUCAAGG: 0.1
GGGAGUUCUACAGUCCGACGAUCUCAAGUCCUGUGCUACACAUCGUAUGUACCGAAUCGGGAAAGGGUGGGUUUGGGAAAGUAUUAUGUUACGCCGUUCGGAUCUGCACUUCCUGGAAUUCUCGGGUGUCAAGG: -1.48
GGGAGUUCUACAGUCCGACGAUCGCAGGAAGUAAAAACAAAUGGUAAUGCUUCGGAUAGUGGCAGGGGUGGGGGUUGCUAAGGAAAGGGUGGGAUGGGAGUGGGUAAAGAGUUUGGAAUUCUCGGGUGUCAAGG: 1.39
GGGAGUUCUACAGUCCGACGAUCAAGUCCUGUGCUACACAUCGUAUGUACCGAAUCGGGGUUUGGGGUGGGGAAAGGGGAAAGUAUUAUGUUACGCCGUUCGGAUCUGCACUUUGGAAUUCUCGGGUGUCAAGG: -0.504
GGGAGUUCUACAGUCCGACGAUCUAACUUUAGAGGAGGGUCUGAUGGAUAUGGCAGUGGACGUGGAUUUGGGGAUGGCUAUAAUGGGUAUGGAGGAGGACCUGGAGGUGGCAAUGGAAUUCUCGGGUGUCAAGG: 0.232
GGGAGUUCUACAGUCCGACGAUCCACAGACAACACGCACCCACACAGACACAGAGGGAAGGGGUUGGGAUGGGGACAGGGUGCACAGCGGGGCGGGGUAGGACCCCAGCCCCUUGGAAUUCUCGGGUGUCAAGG: -0.189
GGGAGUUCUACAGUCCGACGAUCAAGUCCUGUGCUACACAUCGUAUGUACCGAAUCGGUUUUUGGAAAAAAAGGUUUGGAAAGUAUUAUGUUACGCCGUUCGGAUCUGCACUUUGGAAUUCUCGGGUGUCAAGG: -3.72

Mixed results
PhoQ, residues 284 288 289 292 302 303 ALASRC — fold induction (PhoP, residues 12 14 15 18 19 NQFFI (Escherichia coli, UniProt P23836); Sort-seq, item: YFP reporter; E. coli; PhoQ-PhoP variant library, with: 10 µM Mg2+; baseline: high Mg2+ state, higher = stronger signaling): 4

For quick reference, copied from above (set 1):
GACGATTTCAGATCCGAGACGTGCTAG: 0.319 z-score
ATTGCTTCCTCTTTCACTGGGTGCTAG: 2.43 z-score
TCAATTATCCTTGTCCCACTGTGCTAG: 0.0273 z-score
TTAGAACTGGGGTGTCGATTAGTGCTA: -0.204 z-score
